Results pooled from the literature.
A part holds a random share of what one study measured. Substitutions count along the parent as printed.

Block 1 — method: DHFR PCA, deep sequencing; matrix: yeast; with: (+)-ABA 0.032 µM; reference: wild-type fitted maximum; direction: higher = stronger binding; measurement: relative binding score
Target: ABI1, truncated, D143A, DHFR fusion (Arabidopsis thaliana)
Notes: methotrexate growth selection, single substitutions
Parent: PYL1, truncated, DHFR fusion (Arabidopsis thaliana); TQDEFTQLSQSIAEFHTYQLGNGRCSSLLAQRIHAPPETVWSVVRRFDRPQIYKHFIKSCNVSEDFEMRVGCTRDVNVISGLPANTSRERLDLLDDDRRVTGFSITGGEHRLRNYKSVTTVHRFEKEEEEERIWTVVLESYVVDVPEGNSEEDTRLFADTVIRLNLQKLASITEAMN
Substitution = S9D; value = 12.7%
Substitution = Y53W; value = 46.6%
Substitution = R155T; value = 2.38%
Substitution = V70S; value = -0.365%
Substitution = G148F; value = -14.3%
Substitution = V143P; value = -3.13%
Substitution = L91W; value = -3.88%
Substitution = L166F; value = -3.52%
Substitution = T73I; value = 40.9%
Substitution = V136P; value = -0.724%
Substitution = S150G; value = 0.21%
Substitution = V43W; value = -5.12%
Substitution = Q2Y; value = 64.8%
Substitution = R24P; value = -0.287%
Substitution = R24Y; value = 24.2%
Substitution = S27C; value = 4.26%
Substitution = Y18H; value = 26.8%
Substitution = T73F; value = 44.3%
Substitution = V40P; value = 0.837%
Substitution = E14D; value = 6%
Substitution = V161Y; value = 9.11%
Substitution = R46H; value = 1.14%
Substitution = K168I; value = -5.39%
Substitution = E174L; value = -2.07%
Substitution = E131M; value = 39.1%

Block 2 — method: RNA Bind-n-Seq; molecule type: RNA; matrix: in vitro; concentration: not given; notes: RNA with constant flanks, ends assumed; reference: input RNA pool; direction: higher = stronger binding; measurement: bound/input enrichment
Target: RING finger protein unkempt homolog, zinc fingers 1-6, GST-SBP tag (UNK, Homo sapiens, UniProt Q9C0B0, residues 30-357)
Residues (chain): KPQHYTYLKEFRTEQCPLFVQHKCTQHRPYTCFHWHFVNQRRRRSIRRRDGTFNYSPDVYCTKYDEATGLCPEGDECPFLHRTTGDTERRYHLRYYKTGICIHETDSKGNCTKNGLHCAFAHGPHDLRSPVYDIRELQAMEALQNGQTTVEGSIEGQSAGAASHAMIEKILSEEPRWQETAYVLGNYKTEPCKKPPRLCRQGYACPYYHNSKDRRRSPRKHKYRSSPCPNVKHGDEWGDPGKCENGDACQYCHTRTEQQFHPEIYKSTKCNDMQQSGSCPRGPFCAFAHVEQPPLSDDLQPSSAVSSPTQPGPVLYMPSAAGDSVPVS
Strand = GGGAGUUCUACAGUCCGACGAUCAAGUGGUUGCGGGAAAUAUUGAUCUGCAGGAAUAAAUUUCUUCUUAAAAAUAAGCAGGCAGACCGAAGUUCCUGUCACUUUCUCCUUUUUUACGGGGUAGGAUGUGAUAUUCCUUCUAGUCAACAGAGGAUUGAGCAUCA; value = 0.225 ratio
Strand = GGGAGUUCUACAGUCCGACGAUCUCUGGCGUGCCCCUCUUUUAUUUCUUCAACUGGAAUUUUCUCCUUCUACGCACCCUGCAGUCCGUCCUCGAAAGCAUGGACUCAUGGCUGUCGCCAACCCCACUGACACAGUCUGUCCUACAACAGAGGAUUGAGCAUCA; value = 0.367 ratio
Strand = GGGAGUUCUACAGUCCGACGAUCUACUUCUGGAUUCCAGGAAAAAUUCUUAUAACUAAAAUCAAUAUGUUUUAAAAGUCACCAUACCGCUUCUUACUAGUUAUCUUUUAAAGACUGUGGUGGUCUUAAAAGGGAACAAAAGCUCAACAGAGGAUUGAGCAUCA; value = 0.874 ratio
Strand = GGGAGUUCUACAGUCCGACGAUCAUUUAUAUUUGUGAAAAAUGCCACUGUCCUAGUGAUUUCUGAUGUAAAUAAUGUUGUUUAUACCGUAUGUAUUAAAUUUUCCUACAUUGUAAAACUGCUGUACUUUUGAUUCUUGUAUAUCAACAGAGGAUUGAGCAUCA; value = 0.183 ratio
Strand = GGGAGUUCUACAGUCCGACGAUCGUGGCAUCAACAUCAAUGAACAGAGAAUCGUCUAGGUCUCAUGCCGUCUUUACAAUUACAACCGAGUCAAUGGAGAAAAGUAAUGAGAUUGUGAAUAUACGGACCUCCCUACUCAACCUGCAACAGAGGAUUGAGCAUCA; value = 0.108 ratio
Strand = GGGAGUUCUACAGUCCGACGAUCUUUAUGACAUGUCCCUUUAUAUUGAAUGCUGUCACAAAGAAUCUGGGAUUAUAUUAUGACAACCGAAUUCGCAUGUACAGUGAAAGAAGAAUCACUGUUCUUUACAGCCUAGUUCAAGGACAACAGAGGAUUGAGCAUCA; value = 0.211 ratio
Strand = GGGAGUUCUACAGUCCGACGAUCGUGAAGAGAAACAAUUUCUAGCCUUCUUGCCAAAUCCAGACCUCUGGUUGACUUUUCUUUCACCGAAGAUGGAGUUAUCUUCCAGUUUUCCAACUUAAAUUUAUUUAGCCUUUAUAUUAUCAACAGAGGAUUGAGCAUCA; value = 480 ratio
Strand = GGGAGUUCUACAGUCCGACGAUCUUUGCAGAAUGGAGGCAGCUCUGGUUGACCGGUUCCUUGGUUGAGCUCUGACUCAAGACCCCGGUCCCAAGAGCAGGCCUUCCUCACCUAAGAGAGCAACACCUAUGGGUGACCCAUUCUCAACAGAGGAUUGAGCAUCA; value = 0.061 ratio

Block 3 — target: CCNB3, cyclin fold, Cln2 fusion (human); method: yeast growth competition, sequencing; matrix: yeast; notes: weak parent motif; reference: not given; direction: higher = stronger binding; measurement: normalised enrichment score
Parent: E2F1 docking peptide (human); PPVKRRLDLETDH; partner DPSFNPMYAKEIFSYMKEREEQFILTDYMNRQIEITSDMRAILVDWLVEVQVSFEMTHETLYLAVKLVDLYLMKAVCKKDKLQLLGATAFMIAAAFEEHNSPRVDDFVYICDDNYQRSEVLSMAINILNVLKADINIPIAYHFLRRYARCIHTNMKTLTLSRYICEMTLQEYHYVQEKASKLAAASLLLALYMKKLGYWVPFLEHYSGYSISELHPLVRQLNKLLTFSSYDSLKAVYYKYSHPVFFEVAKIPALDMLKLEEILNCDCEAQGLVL
Substitution = PKVKRRLDLETDH [P2K]; value = 0.213
Substitution = PPVKRRLWLETDH [D8W]; value = 0.267
Substitution = PPVKRSLDLETDH [R6S]; value = 0.000643
Substitution = PPVKRRLDLETPH [D12P]; value = 1.23
Substitution = PPVKRRLDLVTDH [E10V]; value = 0.42
Substitution = PPVKRRLDLETDG [H13G]; value = 0.957
Substitution = MPVKRRLDLETDH [P1M]; value = 0.988
Substitution = PPVKRRLDLSTDH [E10S]; value = 0.441
Substitution = PPVKRRLDLEYDH [T11Y]; value = 0.829
Substitution = PPVKRRLDLETKH [D12K]; value = 0.854
Substitution = PPVKRRLDLETQH [D12Q]; value = 0.547
Substitution = PPVKRRYDLETDH [L7Y]; value = 0.116
Substitution = PPVKRQLDLETDH [R6Q]; value = -0.202
Substitution = PPVKRRLDLETDA [H13A]; value = 0.415
Substitution = PPVKRRLDLFTDH [E10F]; value = 0.0413
Substitution = PPVKRRLDLETDC [H13C]; value = 0.337
Substitution = PPVKRMLDLETDH [R6M]; value = 0.423
Substitution = PPTKRRLDLETDH [V3T]; value = 0.0754
Substitution = PMVKRRLDLETDH [P2M]; value = -0.216
Substitution = PPLKRRLDLETDH [V3L]; value = -0.822
Substitution = PPVKRRLDLKTDH [E10K]; value = -0.00842
Substitution = YPVKRRLDLETDH [P1Y]; value = 1.24
Substitution = PPVKRRADLETDH [L7A]; value = -0.0419
Substitution = PPVKIRLDLETDH [R5I]; value = -0.116
Substitution = PPVKRRLDLEHDH [T11H]; value = -0.0523

Block 4 — method: RNA Bind-n-Seq; molecule type: RNA; matrix: in vitro; concentration: 365 nM; reference: no-protein control; direction: higher = stronger binding; measurement: RBNS enrichment (R)
Target: RNA binding protein fox-1 homolog 2, RRM domain, GST-SBP tag (RBFOX2, Homo sapiens, UniProt O43251-10, residues 100-194)
Notes: natural RNA segment, single round, ends assumed
Construct (chain): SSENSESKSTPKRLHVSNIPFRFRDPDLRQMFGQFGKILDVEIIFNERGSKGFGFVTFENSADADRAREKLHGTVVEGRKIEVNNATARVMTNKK
Strand = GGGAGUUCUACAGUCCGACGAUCAGGAGGUCAAGUUCCACACGCACGAGCCGCCUCAGCUGGACGGUGCAGUCAUGGCUGGCACAUGAGGCUUCGCUGAGGCGACACUGGGCACCUAAUGGGGAUGGAACAUUUGGAAUUCUCGGGUGCCAA; value = 2.51
Strand = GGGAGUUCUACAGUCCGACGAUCUAACCAGUUUUUAUAUUGACCUGCAGUGUAAAAAGCACAUUUAAUUAUAAACAAUAUAUUCAAAAUGGGCAAAUUUUAUUUUCAAAUGCAGUGUAGAGCUAGAUUAAAAGUGGAAUUCUCGGGUGCCAA; value = 0.416
Strand = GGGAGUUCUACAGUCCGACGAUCGUACCCACUCGAGUUGUGCCGUGCACAACCUGUCCAGUAUAUGCAUGUGGUGGCCCUACUGACUGGUAAUGGUUAGAGGCAUUUAUGGAUUUUUAGCUUUGAGGAAAAACUGGAAUUCUCGGGUGCCAA; value = 9.17
Strand = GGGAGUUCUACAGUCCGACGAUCUUCGGGGGGUCCUGCUGGGGAGGGGGGCUGGGCUCCCACCAUGGGGCCCAUGCCGAGUGGAUGCCCCCCACCCUCUCUCCUGGGCCACUGAGGAGAGGGGAGAGAGCUGGUGGAAUUCUCGGGUGCCAA; value = 0.644
Strand = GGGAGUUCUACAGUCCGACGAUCGCUGGAAAAAUUAAGGGGAAAAGAGAUUAAGUGGUCCCCAAUGGAACACAGCUGUCUUAUGCAGGGCUCACAGUUACCAUGUUCAGUACAUUGUUAAAGUAACUUGGCUUUGGAAUUCUCGGGUGCCAA; value = 0.948
Strand = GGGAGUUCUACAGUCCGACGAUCUUUGCUGUGGGCAUCUGUAGAUUUCUCGAUCUCGUUAGAUUGCAGGCAUCUUGACAUCUUGGCAACUGCCUAGUUAAUGCCAGUGGCCUGUACCAUAUUAUGGAAAACUGUGGAAUUCUCGGGUGCCAA; value = 0.3
Strand = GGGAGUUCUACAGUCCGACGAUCAGCCAGUCCCGUGGCCACUUCAGCCCUUUUCCAUCCUCUUUUUAUGACGGUGUGUGUGAGAGAGUGGUGGGGCGGGGUGAGAAAUUCUCUGUCCUUUUGUCUACACAUGCUGGAAUUCUCGGGUGCCAA; value = 0.315
Strand = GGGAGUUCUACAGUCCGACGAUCGAAAAAAAGUACCAUUGUGCUAAACGCUACUGAGACUAACCAGGAAACCCUAACGAUGAAGAUGGUCCUGUCCCGGGAGCGGCUGGCUCCACCGAAGUGCUGGGGAGUUGUGGAAUUCUCGGGUGCCAA; value = 0.332
